Experimental data from different studies.
Parts stem from different laboratories: compare values within a part only. Changes are numbered by the printed parent chain.

Block 1
Target: CREBZF, bZIP domain (human)
Method: DHFR protein complementation
Medium: yeast
Notes: single substitutions, most at no-binding floor
Relative to: wild-type JUN-FOS pair
Direction: higher = stronger binding
Starting sequence: JUN, bZIP domain (human); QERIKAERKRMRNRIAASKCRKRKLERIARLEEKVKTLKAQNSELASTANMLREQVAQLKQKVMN; partner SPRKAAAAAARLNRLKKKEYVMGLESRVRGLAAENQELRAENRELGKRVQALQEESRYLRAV
| Variant | binding fitness |
| --- | --- |
| Q41T | -1.4 natural log |
| E32D | -1.58 natural log |
| T48C | -1.58 natural log |
| K39W | -1.53 natural log |
| Q41K | -1.58 natural log |
| A49W | -1.41 natural log |
| E32L | -1.52 natural log |
| L31W | -1.49 natural log |
| L52W | -1.55 natural log |
| M51D | -1.35 natural log |
| E33M | -1.54 natural log |
| K34P | -1.47 natural log |
| A57W | -1.45 natural log |
| K39I | -1.38 natural log |
| V35C | -1.49 natural log |
| K36P | -1.52 natural log |

Block 2
Target: Protein C-ets-1 (ETS1, Homo sapiens, UniProt P14921, residues 1-441, K379A, full length assumed)
Chain of UniProt P14921 (whole entry, unmodified, looked up): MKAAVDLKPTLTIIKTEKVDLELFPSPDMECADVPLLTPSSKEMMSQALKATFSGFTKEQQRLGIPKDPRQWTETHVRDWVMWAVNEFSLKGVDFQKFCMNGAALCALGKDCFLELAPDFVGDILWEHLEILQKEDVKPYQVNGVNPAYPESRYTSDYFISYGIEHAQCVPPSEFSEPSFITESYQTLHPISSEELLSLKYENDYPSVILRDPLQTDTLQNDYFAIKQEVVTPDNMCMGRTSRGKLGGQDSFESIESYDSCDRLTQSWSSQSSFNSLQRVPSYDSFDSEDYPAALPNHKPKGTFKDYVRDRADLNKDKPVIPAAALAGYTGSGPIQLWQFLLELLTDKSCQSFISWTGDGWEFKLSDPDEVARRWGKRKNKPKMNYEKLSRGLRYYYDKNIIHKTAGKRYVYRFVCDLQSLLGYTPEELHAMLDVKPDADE
Method: protein-binding microarray
Molecule type: double-stranded DNA, one strand shown
Medium: in vitro
Concentration: not given
Notes: k-mer, scored over probes, only values ≥0.25
Direction: higher = stronger binding
| Sequence | E-score |
| --- | --- |
| AACTTATT | 0.253 |
| ACAACAAA | 0.252 |
| CGTCAAAC | 0.274 |
| CATCCGGC | 0.339 |
| CCCCCCGG | 0.37 |
| CATTCCGG | 0.35 |
| CTTCCGGC | 0.405 |
| GATACACC | 0.286 |
| GGTATATA | 0.311 |
| AGTGCCGG | 0.311 |
| ACATTATG | 0.304 |
| CCGACACG | 0.272 |
| CCGCACCG | 0.253 |
| ATCCACCG | 0.252 |
| ACCCGGAA | 0.356 |
| CGGTTCAG | 0.27 |

Block 3
Substance: PhoQ, residues 284 288 289 292 302 303 SSTMSV
Method: Sort-seq
Measured: YFP reporter
Medium: E. coli
Notes: PhoQ-PhoP variant library
With: 10 µM Mg2+
Relative to: high Mg2+ state
Direction: higher = stronger signaling
| target | fold induction |
| --- | --- |
| PhoP, residues 12 14 15 18 19 TQCLL (Escherichia coli, UniProt P23836) | 9.52 |
| PhoP, residues 12 14 15 18 19 VHTVL (Escherichia coli, UniProt P23836) | 3.49 |
| PhoP, residues 12 14 15 18 19 ICWRQ (Escherichia coli, UniProt P23836) | 5.1 |

Block 4
Target: Ras GTPase-activating protein-binding protein 1, full length (G3BP1, Homo sapiens, UniProt Q13283)
Chain of UniProt Q13283 (whole entry, looked up): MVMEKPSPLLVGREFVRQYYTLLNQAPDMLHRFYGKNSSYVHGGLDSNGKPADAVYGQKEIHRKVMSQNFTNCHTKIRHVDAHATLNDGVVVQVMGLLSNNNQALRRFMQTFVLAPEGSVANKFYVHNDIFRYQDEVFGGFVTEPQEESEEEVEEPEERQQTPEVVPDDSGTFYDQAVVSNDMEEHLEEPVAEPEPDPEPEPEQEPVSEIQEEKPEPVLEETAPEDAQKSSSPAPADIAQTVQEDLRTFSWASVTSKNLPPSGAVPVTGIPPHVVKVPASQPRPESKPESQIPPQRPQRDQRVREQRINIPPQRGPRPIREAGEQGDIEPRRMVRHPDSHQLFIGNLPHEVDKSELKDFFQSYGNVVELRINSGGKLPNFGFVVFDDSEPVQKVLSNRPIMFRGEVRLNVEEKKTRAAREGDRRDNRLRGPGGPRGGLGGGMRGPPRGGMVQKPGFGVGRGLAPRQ
Method: RNA Bind-n-Seq
Molecule type: RNA
Medium: in vitro
Concentration: 200 nM
Notes: whole 134-nt RNA, ends assumed
With: 150 mM LiCl
Relative to: input library
Direction: higher = stronger binding
Library: 7-deaza-guanosine replaces G
| Sequence | log2 enrichment |
| --- | --- |
| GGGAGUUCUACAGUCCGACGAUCCACAGACAACACGCACCCACACAGACACAGAGGGAAGGGGUUGGGAUGGGGACAGGGUGCACAGCAGGAAAGGGUAGGACCCCAGCCCCUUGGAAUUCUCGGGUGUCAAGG | 0.209 |
| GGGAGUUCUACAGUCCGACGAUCCAAGUCCUGUGCUACACAUCGUAUGUACCGAAUCGGGGCCGGGCCGGGGCCGGGGAAAGUAUUAUGUUACGCCGUUCGGAUCUGCACUUCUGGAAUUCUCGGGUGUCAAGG | 0.0211 |
| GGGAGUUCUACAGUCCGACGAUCAAGUCCUGUGCUACACAUCGUAUGUACCGAAUCGGGAAAGGGUUUUUUUGGGAGGGAAAGUAUUAUGUUACGCCGUUCGGAUCUGCACUUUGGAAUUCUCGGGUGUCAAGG | -0.809 |
| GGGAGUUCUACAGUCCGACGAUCCAAGUCCUGUGCUACACAUCGUAUGUACCGAAUCGGGUUUUUUUGGGUGGGAGGGAAAGUAUUAUGUUACGCCGUUCGGAUCUGCACUUCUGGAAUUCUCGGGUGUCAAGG | 0.321 |
| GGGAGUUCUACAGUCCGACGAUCCUCAAGUCCUGUGCUACACAUCGUAUGUACCGAAUCGGUUUUUUUGGAGGAGGAAAGUAUUAUGUUACGCCGUUCGGAUCUGCACUUCCAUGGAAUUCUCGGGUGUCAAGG | 0.471 |
| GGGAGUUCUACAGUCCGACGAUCAGUCCUGUGCUACACAUCGUAUGUACCGAAUCGGGAAAGGGUUUUUGGGUUUUUGGGAAAGUAUUAUGUUACGCCGUUCGGAUCUGCACUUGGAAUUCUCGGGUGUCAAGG | -2.18 |
| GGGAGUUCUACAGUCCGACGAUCCUCAAGUCCUGUGCUACACAUCGUAUGUACCGAAUCGGGGAGGAGGGGAGGGGAAAGUAUUAUGUUACGCCGUUCGGAUCUGCACUUCCAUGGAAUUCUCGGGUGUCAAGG | -0.191 |
| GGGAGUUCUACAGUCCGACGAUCCUCAGCAGACCCUGAAGGACACUUUGAGACACCAAUCUGGAUUGAGCGGGUGGUGAUAAUAGGGGCUGGAAAGCCAGCAGCUGUGGUACUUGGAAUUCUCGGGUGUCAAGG | -0.778 |

Block 5
Target: Prothrombin, mature alpha-thrombin (F2, Homo sapiens, UniProt P00734)
Method: aptamer microarray, sandwich
Molecule type: DNA with 2'F-ANA
Medium: in vitro
Concentration: 200 nM
Notes: whole 15-mer aptamer, many near background
With: Cy3 exosite-II aptamer, 400 nM
Direction: higher = stronger binding
Sequence: GGTTGGTGTGGTTGG
| Modification | mean fluorescence intensity [a.u.] |
| --- | --- |
| 2'F-ANA at 2 5 7 8 9 10 12 | 50.7 |
| 2'F-ANA at 1 3 4 6 7 8 10 12 13 | 69.2 |
| 2'F-ANA at 1 3 4 5 6 9 10 11 14 | 47.4 |
| 2'F-ANA at 4 6 7 10 11 12 | 103 |
| 2'F-ANA at 1 3 6 14 15 | 116 |
| 2'F-ANA at 2 5 6 7 8 9 10 | 46.1 |
| 2'F-ANA at 1 3 7 10 11 12 13 14 | 61.4 |
| 2'F-ANA at 2 3 7 9 10 11 14 | 242 |
| 2'F-ANA at 1 3 4 5 6 7 10 12 14 15 | 55.3 |
| 2'F-ANA at 5 6 9 12 15 | 139 |
| 2'F-ANA at 1 3 5 8 9 10 12 13 14 | 61 |
| 2'F-ANA at 4 6 8 9 10 12 13 | 79.6 |
| 2'F-ANA at 2 3 4 8 13 15 | 494 |
| 2'F-ANA at 1 3 4 7 8 9 13 15 | 157 |
| 2'F-ANA at 2 3 4 5 6 7 8 9 10 11 13 14 | 82.4 |
| 2'F-ANA at 4 8 10 12 13 | 83.5 |
| 2'F-ANA at 2 5 7 8 9 10 12 13 15 | 53.4 |
| 2'F-ANA at 2 4 7 9 15 | 365 |
| 2'F-ANA at 2 6 7 10 11 12 | 146 |

Block 6
Target: CCNA1, cyclin fold, Cln2 fusion (human)
Method: yeast growth competition, sequencing
Medium: yeast
Notes: weak parent motif
Relative to: not given
Direction: higher = stronger binding
Starting sequence: ANKRD17 docking peptide (human); PSVRRQLFVTVVK
| Variant | normalised enrichment score |
| --- | --- |
| PSVRKQLLVTVVK [R5K F8L] | 1.61 |
| PSVRRQLFVTVVA [K13A] | 0.174 |
| PSVRRQLFVTAVK [V11A] | 0.727 |
| PSVRRQLAVTVVK [F8A] | 0.355 |
| PSVRRQAFVTVVK [L7A] | 0.555 |
| PSVRRQLFVTVAK [V12A] | 0.537 |
| PSVRRALFVTVVK [Q6A] | 0.0447 |

Repeated from above (block 3):
| target | fold induction |
| --- | --- |
| PhoP, residues 12 14 15 18 19 TQCLL (Escherichia coli, UniProt P23836) | 9.52 |
| PhoP, residues 12 14 15 18 19 VHTVL (Escherichia coli, UniProt P23836) | 3.49 |
| PhoP, residues 12 14 15 18 19 ICWRQ (Escherichia coli, UniProt P23836) | 5.1 |
